Experimental data gathered from unrelated publications.
Parts stem from different laboratories: compare values within a part only.

Block 1
Target: Histone acetyltransferase KAT6A, winged helix 1, GST fusion (KAT6A, Homo sapiens, UniProt Q92794, residues 1-85)
Technique: protein binding microarray
Molecule type: double-stranded DNA, one strand shown
Sample: in vitro
Tested at: not given
Setting: 8-mer, flanks averaged, mean of 2 arrays, mostly near background
Relative to: not given
Reading: higher = stronger binding
Quantity: E-score
Construct (chain): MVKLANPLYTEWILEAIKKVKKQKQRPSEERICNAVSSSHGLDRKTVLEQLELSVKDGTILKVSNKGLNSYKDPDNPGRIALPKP
Oligonucleotide = ACCTATCT; value = -0.121
Oligonucleotide = AGTCGCTA; value = -0.0359
Oligonucleotide = TGCACACA; value = -0.197

Block 2
Target: Interferon regulatory factor 5, full length, phosphomimetic (IRF5, Homo sapiens, UniProt Q13568-2, residues 1-514, S451D/S453D/S456D/S462D)
Technique: protein-binding microarray
Molecule type: double-stranded DNA, one strand shown
Sample: in vitro
Tested at: 940 nM top
Setting: 60-bp whole probe
With: salmon DNA 0.4 mg/ml
Relative to: random background probes
Reading: higher = stronger binding
Quantity: fitted relative affinity
Oligonucleotide = GCCTAGCACGACGGTTTCGGGACTTGGGACGTGCTAGTCTTGATTCGCTTGACGCTGCTG; value = 6.28 z-score
Oligonucleotide = GCCTAGCACCACGATTTCAGTCTCGAGACGTGCTAGGTCTTGATTCGCTTGACGCTGCTG; value = 2.07 z-score
Oligonucleotide = GCCTAGCACGACGGACTGTGGTTTCGGGACGTGCTAGTCTTGATTCGCTTGACGCTGCTG; value = 2.68 z-score

Block 3
Target: Sal-like protein 4, full length isoform B (SALL4, Homo sapiens, UniProt Q9UJQ4-2, residues 1-616)
Technique: universal PBM
Molecule type: double-stranded DNA, one strand shown
Sample: in vitro
Tested at: not given
Setting: 8-mer, flanks averaged, mean of replicates
Reading: higher = stronger binding
Quantity: E-score
Construct (chain): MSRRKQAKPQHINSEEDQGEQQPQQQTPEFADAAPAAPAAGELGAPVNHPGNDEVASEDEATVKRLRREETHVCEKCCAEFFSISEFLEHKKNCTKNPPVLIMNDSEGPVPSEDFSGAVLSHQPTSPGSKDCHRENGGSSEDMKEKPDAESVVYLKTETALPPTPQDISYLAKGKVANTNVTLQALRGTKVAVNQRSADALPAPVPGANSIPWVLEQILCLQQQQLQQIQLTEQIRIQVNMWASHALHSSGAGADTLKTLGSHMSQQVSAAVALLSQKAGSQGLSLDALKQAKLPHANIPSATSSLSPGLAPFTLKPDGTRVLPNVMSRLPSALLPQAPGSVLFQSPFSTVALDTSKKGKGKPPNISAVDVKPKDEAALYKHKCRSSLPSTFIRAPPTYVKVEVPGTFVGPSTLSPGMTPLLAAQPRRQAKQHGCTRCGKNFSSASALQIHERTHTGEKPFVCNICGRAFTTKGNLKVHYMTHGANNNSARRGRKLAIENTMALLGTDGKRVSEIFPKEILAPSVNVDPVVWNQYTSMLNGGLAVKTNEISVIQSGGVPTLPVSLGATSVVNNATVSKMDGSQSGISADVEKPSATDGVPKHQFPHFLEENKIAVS
Oligonucleotide = AAAAACTT; value = 0.361
Oligonucleotide = GGTGTGAC; value = -0.336
Oligonucleotide = TGCTTCCA; value = -0.0407

Single results of other studies
Molecule = PhoQ, residues 284 288 289 292 302 303 SNSSNI; target = PhoP, residues 12 14 15 18 19 FWNTL (Escherichia coli, UniProt P23836); test = Sort-seq, measured: YFP reporter; system = E. coli; setting = PhoQ-PhoP variant library, with: 10 µM Mg2+; how to read = relative to: high Mg2+ state, higher = stronger signaling; quantity = fold induction; value = 1.04

Excerpt of the above (block 2):
Oligonucleotide = GCCTAGCACCACGATTTCAGTCTCGAGACGTGCTAGGTCTTGATTCGCTTGACGCTGCTG; value = 2.07 z-score
